Values quoted from earlier work as cited in several papers.
Numbered parts are unrelated; values within a part may stem from several laboratories. ± gives the spread as reported.
Chain of UniProt O15244 (whole entry, looked up): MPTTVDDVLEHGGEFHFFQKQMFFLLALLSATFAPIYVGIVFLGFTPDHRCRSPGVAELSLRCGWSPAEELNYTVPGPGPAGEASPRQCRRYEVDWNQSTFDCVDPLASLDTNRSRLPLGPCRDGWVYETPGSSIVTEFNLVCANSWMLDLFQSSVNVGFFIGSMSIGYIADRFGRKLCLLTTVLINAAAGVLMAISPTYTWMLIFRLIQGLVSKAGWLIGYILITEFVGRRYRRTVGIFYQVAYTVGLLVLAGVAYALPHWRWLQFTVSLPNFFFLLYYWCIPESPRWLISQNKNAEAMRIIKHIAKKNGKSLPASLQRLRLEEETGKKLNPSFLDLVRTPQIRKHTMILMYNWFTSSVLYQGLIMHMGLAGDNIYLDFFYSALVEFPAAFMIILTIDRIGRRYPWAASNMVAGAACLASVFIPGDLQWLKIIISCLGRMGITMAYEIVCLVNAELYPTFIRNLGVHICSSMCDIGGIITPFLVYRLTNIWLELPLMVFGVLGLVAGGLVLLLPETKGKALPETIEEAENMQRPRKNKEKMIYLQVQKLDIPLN

Series 1
Organism: SARS-CoV-2
Effect on: viral cytopathic effect
Cell line: Vero E6
Tested at: 20 µM
| SMILES | inhibition [%] |
| --- | --- |
| O=C(c1cc(O)c(O)c(O)c1)c1ccc(O)c(O)c1O | -0.04 |
| O=C(O)c1c(Cl)c(Cl)c(Cl)c(Cl)c1-c1c2cc(I)c(=O)c(I)c-2oc2c(I)c(O)c(I)cc12 | 3.39 |
| C=C1c2cccc(O)c2C(=O)C2=C(O)[C@]3(O)C(=O)C(C(N)=O)=C(O)[C@@H](N(C)C)[C@@H]3[C@@H](O)[C@H]12 | 0.22 |
| O=C(Nc1cccnc1)N1CCC(Cc2cccc(Oc3ccc(C(F)(F)F)cn3)c2)CC1 | -0.2 |

Series 2
Organism: SARS-CoV-2
Effect on: cytopathic effect
Cell line: Caco-2
Tested at: 10 µM
| SMILES | inhibition [%] |
| --- | --- |
| C=CCN1CCc2cc(O)c(O)cc2C(c2ccccc2)C1 (centres unmarked) | -5.3 |
| O=C(/C=C/c1ccc(O)c(O)c1)O[C@H](Cc1ccc(O)c(O)c1)C(=O)O | -7.3 |
| CCCCCCCCCCCCCCCC[n+]1ccn(Cc2ccccc2)c1C | 37.7 |
| CC(C)(C)c1ccc(S(=O)(=O)/C=C/C#N)cc1 | 3.2 |
| CC[C@]12C=CCN3CC[C@@]4(c5cc([C@@]6(C(=O)OC)C[C@@H]7C[C@@H](C(C)(F)F)C[N@](CCc8c6[nH]c6ccccc86)C7)c(OC)cc5N(C)[C@H]4[C@@](O)(C(=O)OC)[C@@H]1OC(C)=O)[C@@H]32 | -7.1 |
| c1ccc2sc(SN3CCOCC3)nc2c1 | 64.6 |
| CNC(=O)ON(C(C)=O)C(=O)NC | 27.9 |
| C[n+]1c2cc(N)ccc2cc2ccc(N)cc21.Nc1ccc2cc3ccc(N)cc3nc2c1 | 69.4 |
| NC(=S)N/N=C/c1coc2ccccc2c1=O | 11.9 |
| O=C(O)c1ccc(SSc2ccc(C(=O)O)cn2)nc1 | -4.1 |
| Nc1ccc2cc3ccc(N)cc3nc2c1 | 95.8 |
| O=C(O)[C@H]1O[C@@H](Oc2cc3oc(-c4ccccc4)cc(=O)c3c(O)c2O)[C@H](O)[C@@H](O)[C@@H]1O | -3 |
| CCCC[C@H](NC(=O)[C@@H]1[C@@H]2[C@H](CN1C(=O)[C@@H](NC(=O)NC1(CS(=O)(=O)C(C)(C)C)CCCCC1)C(C)(C)C)C2(C)C)C(=O)C(=O)NC1CC1 | 8 |
| O=C(O)C(=O)CBr | 10.3 |
| Cc1ccc(-n2sc(=O)n(Cc3ccc(F)cc3)c2=O)cc1 | -0.638 |
| O=C(C=Cc1ccc(O)c2c1C(C(=O)OC(Cc1ccc(O)c(O)c1)C(=O)O)C(c1ccc(O)c(O)c1)O2)OC(Cc1ccc(O)c(O)c1)C(=O)O (centres unmarked) | 4.8 |
| CCN(CC)C(=S)[S-].O.O.O.[Na+] | 12.6 |
| CO/N=C(\C(=O)N[C@@H]1C(=O)N2C(C(=O)O)=C(CSC(=O)c3ccco3)CS[C@H]12)c1csc(N)n1.Cl | 5.3 |
| O=C(/C=C/c1ccc2ccccc2n1)c1ccncc1 | 101 |
| COc1ccc2[nH]c([S+]([O-])Cc3ncc(C)c(OC)c3C)nc2n1 (centres unmarked) | -1.5 |
| O=C(/C=C/c1ccc2ccc(C(F)(F)F)cc2n1)c1ccncc1 | 1.9 |
| CN1CCc2cccc3c2[C@H]1Cc1ccc(O)c(O)c1-3 | 0.6 |
| CN(C)C(=S)SSC(=S)N(C)C | 22.4 |
| Oc1cc2c(cc1O)[C@H]1c3ccccc3CN[C@@H]1CC2 (racemic) | -0.754 |
| CCC[C@H](NC(=O)[C@@H]1[C@H]2CCC[C@H]2CN1C(=O)[C@@H](NC(=O)[C@@H](NC(=O)c1cnccn1)C1CCCCC1)C(C)(C)C)C(=O)C(=O)NC1CC1 | 2.3 |

Single results of other studies
| SMILES | tested on | test | test system | conditions | scale | endpoint | value |
| --- | --- | --- | --- | --- | --- | --- | --- |
| CCN(CC)Cc1cc(Nc2ccnc3cc(Cl)ccc23)ccc1O | SARS-CoV | cytopathic effect | Vero E6 | – | – | EC50 | 1.27 µM |
| C[C@@H]1C[C@H]2[C@@H]3CCC4=CC(=O)C=C[C@]4(C)[C@@]3(F)[C@@H](O)C[C@]2(C)[C@@]1(O)C(=O)CO | SLC22A2 (Homo sapiens, UniProt O15244) | – | – | 20 µM | – | inhibition | no inhibition |
| CCC(CC)COC(=O)[C@H](C)N[P@](=O)(OC[C@H]1O[C@@](C#N)(c2ccc3c(N)ncnn23)[C@H](O)[C@@H]1O)Oc1ccccc1 | SARS-CoV-2 | – | hospitalized sample A patients | dose not given | – | time to recovery | 11 days |
| CC(C)(C)NC(=O)N[C@H](C(=O)N1C[C@H]2[C@@H]([C@H]1C(=O)NC(CC1CCC1)C(=O)C(N)=O)C2(C)C)C(C)(C)C (some centres unmarked) | SARS-CoV-2 | viral replication | – | – | – | IC50 | 38.6 µM |
| COc1ccc2c(O[C@@H]3C[C@H]4C(=O)N[C@]5(C(=O)NS(=O)(=O)C6CC6)C[C@H]5/C=C\CCCCN(C)C(=O)[C@@H]4C3)cc(-c3nc(C(C)C)cs3)nc2c1C | SARS-CoV-2 | viral replication | 293T/ACE2 | – | – | IC50 | 2.3 µM |
| COc1cc(O)c(C(=O)[C@@H]2[C@H](CC=C(C)C)C(C)=CC[C@H]2c2ccccc2)c(O)c1 | SARS-CoV-2 | viral replication | Calu-3 | – | – | IC50 | 2.04 µM |
| C=CC/C=C\C=C/[C@H]1O[C@H]2C[C@H]3O[C@H]4CC[C@H]5O[C@H]6C[C@@]7(C)O[C@@]8(C)[C@@H](O)C[C@H](CCCO)O[C@@H]8C[C@@H]7O[C@@H]6C[C@@H]5O[C@]4(C)C[C@]3(C)O[C@@H]2C=C[C@]1(C)O | Kv2.1 V404T | potassium current, inhibitor | – | previously reported | – | IC50 | 0.504 ± 0.028 µM |
| CCN(CC)CCCC(C)Nc1c2ccc(Cl)cc2nc2ccc(OC)cc12 (centres unmarked) | Ebola virus | viral replication | – | – | – | IC50 | 1.31 µM |
| Nc1ccn(C[C@@H](CO)OCP(=O)(O)O)c(=O)n1 | Vaccinia virus | viral replication | HEL human embryonic lung fibroblasts, Lederle | – | – | IC50 | 3.09 µg/mL |
| CCC(CC)COC(=O)[C@H](C)N[P@](=O)(OC[C@H]1O[C@@](C#N)(c2ccc3c(N)ncnn23)[C@H](O)[C@@H]1O)Oc1ccccc1 | SARS coronavirus | viral replication | – | literature value | – | IC50 | 0.069 µM |
| NC(=O)c1nc(F)c[nH]c1=O | Lassa virus | – | mouse | oral | – | highest dose tested | 300 mg/kg |
| C[C@H]1CO[C@@H]2Cn3cc(C(=O)NCc4ccc(F)cc4F)c(=O)c(O)c3C(=O)N12 | HIV-1 | viral replication, single-round vector infection | IN G140S/Q148H | – | – | EC50 | 0.0235 ± 0.0072 µM |
| CC(CN(C)C)CN1c2ccccc2CCc2ccccc21 (centres unmarked) | Marburg virus | pseudovirus entry, HIV pseudotype luciferase reporter | A549 | – | – | IC50 | 10.9 µM |
| O=C(/C=C/c1ccc(O)c2oc(-c3ccc(O)c(O)c3)cc12)O[C@H](Cc1ccc(O)c(O)c1)C(=O)O | SARS-CoV-2 | viral replication | – | – | – | EC50 | 0.32 µM |
| O=C1Nc2ccc(Cl)cc2[C@@](C#CC2CC2)(C(F)(F)F)O1 | HIV-1 reverse transcriptase K101Q | – | – | – | relative to: K101Q over wild type | IC50 fold change | 1.8 fold |
| C[C@H](c1cccc2ccccc12)N1CCC(C(=O)NCc2cc(F)cc(NC(=O)N3CCN(C)CC3)c2)CC1 | SARS-CoV-2 PLpro | enzyme activity, inhibitor | – | – | – | IC50 | 0.44 µM |
| C=C[C@@H]1C[C@]1(NC(=O)[C@@H]1C[C@@H]2CN1C(=O)[C@H](C(C)(C)C)NC(=O)O[C@@H]1C[C@H]1CCCCCc1nc3ccc(OC)cc3nc1O2)C(=O)NS(=O)(=O)C1CC1 | SARS-CoV-2 | viral replication | 293T/ACE2 | – | – | IC50 | 16.7 µM |
| O=C(NCc1c(F)cc(F)cc1F)c1cn2c(c(O)c1=O)C(=O)N1[C@H]3CC[C@H](C3)O[C@@H]1C2 | HIV-1 integrase S230N | viral replication | HIV-1 | single-round vector | – | EC50 | 0.0026 ± 0.0006 µM |
| Cc1ccc(NC(=O)c2ccc(CN3CCN(C)CC3)cc2)cc1Nc1nc(-c2cccnc2)cs1 | SARS-CoV-2 | viral replication | – | – | – | IC50 | 3.2 µM |
| CCN(CC)CCOc1ccc2c(c1)C(=O)c1cc(OCCN(CC)CC)ccc1-2 | Ebola virus | viral replication | – | – | – | IC50 | 1.28 µM |
| COc1ccc([C@H]2c3[nH]c4ccc(Cl)cc4c3CCN2C(=O)Oc2ccc(Cl)cc2)cc1 | SARS-CoV-2 | viral replication, refers to: capsid protein | – | cell culture | – | EC50 | 0.00196 µM |

Repeated from above (series 2):
| SMILES | inhibition [%] |
| --- | --- |
| NC(=S)N/N=C/c1coc2ccccc2c1=O | 11.9 |
| O=C(O)[C@H]1O[C@@H](Oc2cc3oc(-c4ccccc4)cc(=O)c3c(O)c2O)[C@H](O)[C@@H](O)[C@@H]1O | -3 |
| O=C(/C=C/c1ccc(O)c(O)c1)O[C@H](Cc1ccc(O)c(O)c1)C(=O)O | -7.3 |
| CN(C)C(=S)SSC(=S)N(C)C | 22.4 |
| CCN(CC)C(=S)[S-].O.O.O.[Na+] | 12.6 |
| O=C(O)c1ccc(SSc2ccc(C(=O)O)cn2)nc1 | -4.1 |
